Experimental data collected from several papers.
A part holds a random share of what one study measured. Changes are numbered by the printed parent chain.

Study 1 — method: RNA Bind-n-Seq; molecule type: RNA; matrix: in vitro; tested at: 365 nM; reference: no-protein control; reading: higher = stronger binding
Target: RNA binding protein fox-1 homolog 2, RRM domain, GST-SBP tag (RBFOX2, Homo sapiens, UniProt O43251-10, residues 100-194)
Notes: natural RNA segment, single round, ends assumed
Residues (chain): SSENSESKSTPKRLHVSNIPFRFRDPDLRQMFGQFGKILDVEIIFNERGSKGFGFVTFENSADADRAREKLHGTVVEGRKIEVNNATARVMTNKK
Sequence | RBNS enrichment (R)
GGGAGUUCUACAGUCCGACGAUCGGAGUGAAUGUAAAAAUGCCACCUCACUCUCAGGCAAGCUUUGUGGGUAAAGACGAGGGGUCAGGGUUCAACUUGACAGUGUACUUCGCUAGGAAGGAGAGGCCCUUGCCUGGAAUUCUCGGGUGCCAA | 0.451
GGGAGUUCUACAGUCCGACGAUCCACACGAAAGCUAAGCUGGUGGCCUUCCCCGCCAGCCCCUCGCAGGAUGGGGGUUUCAAUGUGAAACAUAUGCCAGUUUUUGUUCUUUUUUUUUUUUUUUAUGCUGCUUUUGGAAUUCUCGGGUGCCAA | 1.38
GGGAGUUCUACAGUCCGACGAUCUAACUUCAAAACUUUUAAGAGCAGUGAAGUUGGUCAGGGACAUGUGGCCACUUAUUAUUACCUAAAGAAAACAUUUGUUCCCUGUUCAUUUUAUUUUAGGGGCCAGAUCUUGGAAUUCUCGGGUGCCAA | 0.286
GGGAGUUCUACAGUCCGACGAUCGGGUUCCCUCUUCACAGUCCCCGUUCCCACACUUCCUCCACCAUCACUCACUCACUGGUGCUGGCCUAGCCCCAGUUCACUCUGGUGCCACAAUAAACCUGUAUCUAGCUUGGAAUUCUCGGGUGCCAA | 0.586
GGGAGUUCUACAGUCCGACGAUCUCUCUGGUCUACCUGAGAUCUAUAUGGAGCUUAAAGGAGGGUGAAUAAGAUUAAUGACCUGAAUUGAAAGAGAAUUUGGAGCCAGGAUGGGUCUCCAUUCUGUGUGGCACUGGAAUUCUCGGGUGCCAA | 0.437
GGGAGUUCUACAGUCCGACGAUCGCCAGGGUUGUGCUUUCUAGCAAAUAUGCUGUUAUGUCCAGAAAUUGUGUGUGCAAGAAAACUAGGCAAUGUACUCUUCCGAUGUUUGUGUCACACAACACUGAUGUGACUGGAAUUCUCGGGUGCCAA | 0.717
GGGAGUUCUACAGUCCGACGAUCUCCUUGAGUGCCCAGGCUUGAAGCACAUUGGCUGUCAUUCUGAUGUGACUCGAGAUUGCAGUUGCAACUUGGCAGCUUUUUUCUACUGGACAGGAAGAUGGCAGAAGCUAUGGAAUUCUCGGGUGCCAA | 0.358
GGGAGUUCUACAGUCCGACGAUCGACUUACCCUUCAUUGAAGAGAAAAAGAAGACAGUCAAAAAAGGUCCAGGUUACAAAGUUCUCCUCAUAGGUGGAAAGGUUUACUGCAGUGUUAUCCUCUAAGUGUGAUAUGGAAUUCUCGGGUGCCAA | 0.823
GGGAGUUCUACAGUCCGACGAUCUCGGGCACCACCAGCCAUCCCCGAGUGCCCUGUAGCCACUCACCACUGCUGCCACCUCUCUGGCCAAUGGCCCUUUCACUGGCCUGGUGACUGGAAUGUGGGCAGCGCCCUGGAAUUCUCGGGUGCCAA | 0.38
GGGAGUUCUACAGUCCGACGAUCGAAGAGUGAUCUAUGUCUCUUCCCCCAGCAGCUCGGACCACUCCCAGCCCCCCAUCCCCCCGUUCCCCAGGGGAGCUGGGGAAUUCCUGCCAAGCACCUUGAAUGGGAGGUGGAAUUCUCGGGUGCCAA | 0.759
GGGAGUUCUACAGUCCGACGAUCGUCUGAGAGGAGCAUUUUCCUGGAAGGCCAUCUUUUAAGGCCCCUGCUUGCUGUCAUAGUGCAGAGCAGAAACUUGCACACUAUUUAGAGAGCUCCCUUCCCACCUCUCUUGGAAUUCUCGGGUGCCAA | 1.04
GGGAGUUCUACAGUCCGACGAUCCUCAGAUCCCUUAAAGGAUGAAGAGUUGGCUGUACACUUAGCGGACUUGCCUCUUGUAUGCAAGGACUACUGAUUGAAGUCUGUUUUGCUGUGUCUGGUUAUGUUGUCUGUGGAAUUCUCGGGUGCCAA | 0.408

Study 2 — target: CDC34 UBC core domain (UniProt P49427); method: yeast two-hybrid; matrix: yeast; notes: mostly zero background; reference: not given; reading: higher = stronger interaction
B1: RNF130 RING domain (UniProt Q86XS8); chain DKETDPDFDHCAVCIESYKQNDVVRILPCKHVFHKSCVDPWLSEHCTCPMCKLNILKALGIV
B2: TRIM74 RING domain (UniProt Q86UV6); chain SLLELEDWLQCPICLEVFKESLMLQCGHSYCKGCLVSLSYHLDTKVRCPMCWQVVDGSSSLP
B3: MARCHF2 RING domain (UniProt Q9P0N8); chain RLLSTVIRALDTPSDGPFCRICHEGANGECLLSPCGCTGTLGAVHKSCLEKWLSSSNTSYCELCHTEFAVEKRPRPLTEWL
B4: RNF17 RING domain (UniProt Q9BXT8); chain SQPWGAAEIQCTRCGRRVSRSSGHHCELQCGHAFCELCLLMTEECTTIICPDCEVATAVNTRQR
B5: PJA2 RING domain (UniProt O43164); chain DHTAIGQEQCCPICCSEYIKDDIATELPCHHFFHKPCVSIWLQKSGTCPVCRRHFPPAVIEA
B6: SHPRH RING domain (UniProt Q149N8); chain KTSGGVNPEPCPICARQLGKQWAVLTCGHCFCNECISIIIEQYSVGSHRSSIKCAICRQTTSHKEISY
B7: RMND5B RING domain (UniProt Q96G75); chain MKCWYHSVFACPILRQQTSDSNPPIKLICGHVISRDALNKLINGGKLKCPYCPMEQNPADGK
B8: RNF7 RING domain (UniProt Q9UBF6); chain AICRVQVMDACLRCQAENKQEDCVVVWGECNHSFHNCCMSLWVKQNNRCPLCQQDWVVQRIGK
B9: RFPL3 RING domain (UniProt O75679); chain MAALFQEASSCPVCSDYLEKPMSLECGCTVCLKCINSLQKEPHGEDLLCCCCSMVSQRNKIRP
B10: RNF10 RING domain (UniProt Q8N5U6); chain VRICSHEVPSCPICLYPPTAAKITRCGHIFCWACILHYLSLSEKTWSKCPICYSSVHKKDLKS
B11: TRIM2 RING domain (UniProt Q9C040); chain VRQIDKQFLICSICLERYKNPKVLPCLHTFCERCLQNYIPAHSLTLSCPVCRQTSILPEKGV
B12: CBLL1 RING domain (UniProt Q75N03); chain GEKDDTPVHFCDKCGLPIKIYGRMIPCKHVFCYDCAILHEKKGDKMCPGCSDPVQRIEQCT
B13: TRIM47 RING domain (UniProt Q96LD4); chain MDGSGPFSCPICLEPLREPVTLPCGHNFCLACLGALWPHRGASGAGGPGGAARCPLCQEPFPDGLQLR
B14: UBE4B RING domain (UniProt O95155); chain KNARAEIDYSDAPDEFRDPLMDTLMTDPVRLPSGTIMDRSIILRHLLNSPTDPFNRQTLTESMLEPVPELKEQIQAWMREKQNSDH
Construct (chain): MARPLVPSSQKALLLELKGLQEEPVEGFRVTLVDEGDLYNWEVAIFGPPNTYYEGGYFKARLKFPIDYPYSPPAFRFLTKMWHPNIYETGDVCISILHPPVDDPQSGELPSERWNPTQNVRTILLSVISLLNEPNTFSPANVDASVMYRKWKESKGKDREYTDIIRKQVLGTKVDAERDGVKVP
Molecule | lacZ reporter activity
SNNDLASLFECPVCFDYVLPPILQCQSGHLVCSNCRPKLTCCPTCRGPLGSIRNLA (SIAH1 RING domain (UniProt Q8IUQ4)) | 0
B1 (RNF130 RING domain) | 0
B2 (TRIM74 RING domain) | 0
MEEMEEELKCPVCGSFYREPIILPCSHNLCQACARNILVQTPESESPQSHRAAGSGVSDY (TRIM9 RING domain (UniProt Q9C026)) | 0
B3 (MARCHF2 RING domain) | 0
B4 (RNF17 RING domain) | 0
B5 (PJA2 RING domain) | 0
B6 (SHPRH RING domain) | 0
B7 (RMND5B RING domain) | 0
B8 (RNF7 RING domain) | 0
B9 (RFPL3 RING domain) | 0
B10 (RNF10 RING domain) | 0
B11 (TRIM2 RING domain) | 0
B12 (CBLL1 RING domain) | 0
B13 (TRIM47 RING domain) | 0
KITELNPHLMCALCGGYFIDATTIVECLHSFCKTCIVRYLETNKYCPMCDVQVHKTRPLL (PCGF2 RING domain (UniProt P35227)) | 0
EIKDYKARLTCPCCNMRKKDAVLTKCFHVFCFECVKTRYDTRQRKCPKCNAAFGANDFHR (RNF20 RING domain (UniProt Q5VTR2)) | 0
B14 (UBE4B RING domain) | 0
VPADASPDSKCPICLDRFDNVSYLDRCLHKFCFRCVQEWSKNKAECPLCKQPFDSIFHSV (TOPORS RING domain (UniProt Q9NS56)) | 0

Study 3 — target: JUND, bZIP domain (human); method: DHFR protein complementation; matrix: yeast; reference: wild-type JUN-FOS pair; reading: higher = stronger binding
Notes: single substitutions, most at no-binding floor
Starting sequence: JUN, bZIP domain (human); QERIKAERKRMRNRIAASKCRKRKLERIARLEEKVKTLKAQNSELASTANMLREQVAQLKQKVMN
Variant | binding fitness
A49D | -1.44 natural log
R53W | -1.31 natural log
N42S | -1.34 natural log
N42P | -1.41 natural log
N42M | -1.38 natural log
E44W | -1.25 natural log
V35Q | -1.37 natural log
A49M | -1.25 natural log
L59H | -1.45 natural log
R53P | -1.35 natural log
L45S | -1.39 natural log
L38V | -1.44 natural log
L45G | -1.46 natural log
L45E | -1.26 natural log
V56P | -1.43 natural log
A49K | -1.29 natural log
L52H | -1.45 natural log
V56N | -1.49 natural log
I28F | -1.29 natural log

Study 4 — target: CCNB2, cyclin fold, Cln2 fusion (human); method: yeast growth competition, sequencing; matrix: yeast; notes: weak parent motif; reference: not given; reading: higher = stronger binding
Starting sequence: CDKN1A docking peptide (human); SKACRRLFGPVDS
Variant | normalised enrichment score
SKAVRRLFGPVDS [C4V] | 0.334
SKACRRLFGPCDS [V11C] | 0.448
SKACRKLFGPVDS [R6K] | 0.474
SKAYRRLFGPVDS [C4Y] | -0.126
SKACRRLFGPTDS [V11T] | 0.494
SGACRRLFGPVDS [K2G] | 0.051
SKACRRLFGPVNS [D12N] | 0.374
SKACKRLFGPVDS [R5K] | 0.368
SKACRRLFGPEDS [V11E] | 0.0527
SKACRRLHGPVDS [F8H] | 0.369
SKACRRLFGNVDS [P10N] | 0.347
SKACRREFGPVDS [L7E] | -0.032
SKACRRVFGPVDS [L7V] | 0.913
SAACRRLFGPVDS [K2A] | 0.0932
SKACRRLFYPVDS [G9Y] | 0.282
SKACRRLFIPVDS [G9I] | 0.55
SKACRRLFGPVAS [D12A] | 0.236
SKACRRLFGLVDS [P10L] | -0.125

Study 5 — method: protein binding microarray; molecule type: double-stranded DNA, one strand shown; matrix: in vitro; tested at: not given; reference: not given; reading: higher = stronger binding
Target: Histone acetyltransferase KAT6A, winged helix 2, GST fusion (KAT6A, Homo sapiens, UniProt Q92794, residues 85-181)
Notes: 8-mer, flanks averaged, mean of 2 arrays, mostly near background
Target sequence (chain): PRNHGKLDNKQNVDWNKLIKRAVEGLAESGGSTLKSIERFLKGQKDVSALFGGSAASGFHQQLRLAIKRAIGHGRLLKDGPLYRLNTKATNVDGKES
Sequence | E-score
CAACGATA | 0.095
AACATGTC | -0.216
CGCGCAGA | 0.16
CTGCAGGA | 0.146
CGGTAGCA | 0.114
GAACGGTC | -0.109
CGAATTGC | -0.115
CTTAGAGA | 0.0501
GATGTGAC | -0.0908
ACACGATA | 0.0766
ATATTCAG | -0.0511
CACCAACG | -0.0516
GAATAGAC | -0.117
AGTCTCGG | -0.201
ATAATGCG | -0.106
GACCTGCC | 0.141
GCACCAGA | 0.104
CTTAAGAC | -0.114
CGCTAACC | 0.102
CCTCGCCA | 0.0105
AGAATTCG | 0.101
ACTCGTTC | -0.0328
ACCTCAGC | -0.0627
ATGAGTGA | -0.1
AGACGTGC | -0.093

Repeated from above (study 4):
Variant | normalised enrichment score
SKAVRRLFGPVDS [C4V] | 0.334
SKACRRLFYPVDS [G9Y] | 0.282
SKACKRLFGPVDS [R5K] | 0.368
SKACRRLFGPCDS [V11C] | 0.448
SKACRRLFGLVDS [P10L] | -0.125
SKACRRLHGPVDS [F8H] | 0.369
SKACRRLFIPVDS [G9I] | 0.55
SGACRRLFGPVDS [K2G] | 0.051
SKACRREFGPVDS [L7E] | -0.032
SKACRRVFGPVDS [L7V] | 0.913
SKACRRLFGPVNS [D12N] | 0.374
SKACRRLFGPTDS [V11T] | 0.494
SKAYRRLFGPVDS [C4Y] | -0.126
